Assay results pooled from the literature.
Each numbered part is a random draw from the data of one study; scales do not carry over between parts.

Study 1
Molecule: PhoQ, residues 284 288 289 292 302 303 AMDMFI
Method: Sort-seq
Refers to: YFP reporter
Sample: E. coli
Setting: PhoQ-PhoP variant library
Added: 10 µM Mg2+
Reference: high Mg2+ state
Reading: higher = stronger signaling
PhoP, residues 12 14 15 18 19 VHTVL (Escherichia coli, UniProt P23836) — fold induction: 1.1.
PhoP, residues 12 14 15 18 19 ICWRQ (Escherichia coli, UniProt P23836) — fold induction: 0.142.
For PhoP, residues 12 14 15 18 19 TQCLL (Escherichia coli, UniProt P23836): fold induction read 0.527.

Study 2
Target: RING finger protein unkempt homolog, zinc fingers 1-6, GST-SBP tag (UNK, Homo sapiens, UniProt Q9C0B0, residues 30-357)
Chain of UniProt Q9C0B0 (30-357, looked up): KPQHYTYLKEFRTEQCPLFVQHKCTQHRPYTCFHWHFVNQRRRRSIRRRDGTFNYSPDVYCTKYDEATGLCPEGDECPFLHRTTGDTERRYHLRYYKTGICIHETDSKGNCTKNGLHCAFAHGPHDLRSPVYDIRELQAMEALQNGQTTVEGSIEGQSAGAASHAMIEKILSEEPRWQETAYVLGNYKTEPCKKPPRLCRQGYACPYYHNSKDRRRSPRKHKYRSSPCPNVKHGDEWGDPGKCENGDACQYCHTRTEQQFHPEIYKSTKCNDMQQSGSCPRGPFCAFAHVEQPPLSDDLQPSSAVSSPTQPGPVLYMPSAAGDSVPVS
Method: RNA Bind-n-Seq
Form: RNA
Sample: in vitro
Tested at: not given
Setting: RNA with constant flanks, ends assumed
Reference: input RNA pool
Reading: higher = stronger binding
Constant ends, left off below: GGGAGUUCUACAGUCCGACGAUC … CAACAGAGGAUUGAGCAUCA
For `AAUUUGUCUUGUGAUUUUAAACUUAUGAGUCAAGAAGGGUCUCUUCCUUUAUCAUUGCCUUUCCGGAAAUUUUCCACAUCUUUCAGUGUUUGAACUUACUUGUGCUUGAGAUUCUACAGU`, the bound/input enrichment was 0.137 ratio.
For `AUAUUGGAGAAUUGGGAGAAGUCUCUUUGGUUUGGAAAAAAAAAAAAGGAAUCUUCAGCCCCGAUCACUUUCUUAUCCGGACUGGGAUAUUAAAUAUACGACACAUCCAGGAGUUUAUUG`, the bound/input enrichment was 0.352 ratio.
`GAAAACAUAUUCAGUCGUAUAGUAGAUAUACAUGAACUUAGUGUAAAGUUACUGGGCCAUACCGAAGAUACUGUAGAAAUGACAGAUGAAGGCAGUCCCCACCCAUUAGUAGGAAGCUGU` has a bound/input enrichment of 2.14 ratio.
`AUGGCUUGGACGAUAUUAAGGACCGCUCGACGCUGGGAGAGAAACUGGGGGGCAGUGUUGCCGUUUCCCUUGAAGGAAAGCCACUAUAAAAUAAUAGCCAAGUGCCAUUUGAUCUUAAGG` gave a bound/input enrichment of 0.29 ratio.
With `CAUCUCUCAUUUUAUAUGUCCAGAAAUGGCUUUGAAUUUUAAGCAAUUACUAGUUUUAAUCCGCUCUGCCCUCAUGAAGUAUUAUUAUAAUUCACCAUAAACAGCUAUCUGUCUGAAUUA` the bound/input enrichment was 36.6 ratio.
The bound/input enrichment of `AGUGACUUAUCUGAGAAUGUAGAGUCAGUGGUUAAUGAAGAAAAAAUAACAGAGAGUUCCCCCGCCGAAAUUACUGAACAUAAAGAUUUUACACUAAAAACAGAGGAGCUUAUAGAGAGC` is reported as 0.676 ratio.
`ACUCAUGUACCCAUGUUACAGGUAUGGACUGCUGAUAAACCACAUCCACAAGAAGAGUAUUCCGAUUGCCUGUGGGCCCAGAUUCAGAAAUUGAAAAAGGAUCGCUGGCAGGAACGGCAC` has a bound/input enrichment of 0.134 ratio.
`AGGGAGCUUCCAGGAAGACUUGCCUCAAACAACUGAGCCAAAGACAGACUGGUUAGAACGCCGUCAUAUGCUUUUGUGUGCAAAUAAUAUUUUCAAAGAACUAAUAAUAAUUUGAUUGAG` has a bound/input enrichment of 1.06 ratio.
For `UAGUGAAAUUCUCUAGCACUGUAUUUAGAUUCUGGAUUUUUAUAAUUCAUGCUUAAUGUAUCCGACAUUUUUAGCCCAUAAUUAAAACAUUGUUGCUUUUACACAGGUGUAGUUUGGUGC`, the bound/input enrichment was 23.7 ratio.
With `GAAUUUGGACAAGUUUUGGCUUCCUGUUCUUUUGACCGAACAGCAGCUGUAUGGGAAGAAACCGUGGGAGAAUCAAACGAUAAACUUCGAGGACAGAGUCACUGGGUGAAGAGGACAACU` the bound/input enrichment was 0.111 ratio.
The bound/input enrichment of `AAUGUAGUGUUUUUCCUUUAUAACAUACUUCAGUGACUAAAACUGCUGGCAGCAGUUAAGUCCGUGGGCUUUCUGACUGCAGAUAGGAUUAUUCAUUAAAAAUGUCUGUGUGAUGCUGUA` is reported as 2.23 ratio.

Study 3
Target: Ras GTPase-activating protein-binding protein 1, full length (G3BP1, Homo sapiens, UniProt Q13283)
Chain of UniProt Q13283 (whole entry, looked up): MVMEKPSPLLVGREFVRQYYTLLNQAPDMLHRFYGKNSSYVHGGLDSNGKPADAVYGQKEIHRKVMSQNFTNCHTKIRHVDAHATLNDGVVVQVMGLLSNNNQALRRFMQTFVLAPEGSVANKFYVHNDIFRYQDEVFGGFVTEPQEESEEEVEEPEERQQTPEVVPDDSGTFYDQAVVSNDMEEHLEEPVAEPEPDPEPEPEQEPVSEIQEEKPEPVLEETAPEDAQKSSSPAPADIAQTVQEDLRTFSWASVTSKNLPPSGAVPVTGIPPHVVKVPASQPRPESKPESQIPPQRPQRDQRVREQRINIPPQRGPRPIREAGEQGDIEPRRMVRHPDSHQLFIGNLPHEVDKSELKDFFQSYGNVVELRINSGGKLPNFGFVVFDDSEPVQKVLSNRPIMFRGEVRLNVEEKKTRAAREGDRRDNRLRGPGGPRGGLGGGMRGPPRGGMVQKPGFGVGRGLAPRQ
Method: RNA Bind-n-Seq
Form: RNA
Sample: in vitro
Tested at: 200 nM
Setting: whole 134-nt RNA, ends assumed
Added: 150 mM LiCl
Reference: input library
Reading: higher = stronger binding
All molecules: 7-deaza-guanosine replaces G
Constant ends, left off below: GGGAGUUCUACAGUCCGACGAUC … UGGAAUUCUCGGGUGUCAAGG
For `UGGCCCUUGUGGCAUGCGGGGAGGAAGAGGUGGCCUCAUGGAUCGUGGUGGUCCCGGUGGAAUGUUCAGAGGUGGCCGUGGUGGAGACAG`, the log2 enrichment was 0.331.
For `AAAAUUUCCAGUACCUUUGUCACAAUCCUAACACAUUAUCGGGAGCAGUGUCUUCCAUAAUGUAUAAAGAACAAGGUAGUUUUUACCUAC`, the log2 enrichment was -0.731.
`CCUCAAGUCCUGUGCUACACAUCGUAUGUACCGAAUCGGUGGAAAAAGGUGGAAAGUAUUAUGUUACGCCGUUCGGAUCUGCACUUCCAG` has a log2 enrichment of 0.409.
For `UCCUCAAGUCCUGUGCUACACAUCGUAUGUACCGAAUCGGGGAGGGAGGAGGAAAGUAUUAUGUUACGCCGUUCGGAUCUGCACUUCCAG`, the log2 enrichment was -0.271.
With `UCCUCAAGUCCUGUGCUACACAUCGUAUGUACCGAAUCGGUGGGUGGGUGGAAAGUAUUAUGUUACGCCGUUCGGAUCUGCACUUCCAGC` the log2 enrichment was 0.805.
The log2 enrichment of `AAGUCCUGUGCUACACAUCGUAUGUACCGAAUCGGGUUUUUGGUUUUUGGUUUUUGGAAAGUAUUAUGUUACGCCGUUCGGAUCUGCACU` is reported as -0.543.
With `CUGUGCUACACAUCGUAUGUACCGAAUCGGGUUUUUUUGGGUUUUUUUGGGGUUUUUUUGGAAAGUAUUAUGUUACGCCGUUCGGAUCUG` the log2 enrichment was 1.42.
For `UGGCCGGUGGCCGUGAGAACACGCUGUGUGGCUGAAAAGUGAAGGCAAGAGCUGAUUUGGCCUCUGUGCUCCCCUCCGCAAGGGGAUCGU`, the log2 enrichment was -0.313.
`AAGUCCUGUGCUACACAUCGUAUGUACCGAAUCGGGGUUUUGGGUUUUGGUUUUGGGAAAGUAUUAUGUUACGCCGUUCGGAUCUGCACU` gave a log2 enrichment of -0.735.
With `UCCUCAAGUCCUGUGCUACACAUCGUAUGUACCGAAUCGGGAGGAGGGAGGGAAAGUAUUAUGUUACGCCGUUCGGAUCUGCACUUCCAG` the log2 enrichment was -0.312.
The log2 enrichment of `CUGUGCUACACAUCGUAUGUACCGAAUCGGUUUUUUUGGGUUUUUUUGGGGUUUUUUUGGGAAAGUAUUAUGUUACGCCGUUCGGAUCUG` is reported as 1.16.

Study 4
Target: TAR DNA-binding protein 43, full length, His tag (TARDBP, Homo sapiens, UniProt Q13148, residues 1-414)
Method: RNA Bind-n-Seq
Form: RNA
Sample: in vitro
Tested at: 20 nM
Setting: 6-mer, flanks averaged, single round
Added: 150 mM LiCl
Reference: input library
Reading: higher = stronger binding
For `UGUCGU`, “6-mer enrichment (R)” read 1.06.
Under “6-mer enrichment (R)”, `GAUACC` is recorded as 0.878.
Under “6-mer enrichment (R)”, `GUUCUG` is recorded as 0.99.
Under “6-mer enrichment (R)”, `UCAUGC` is recorded as 0.881.
`UGGUAU` — result for “6-mer enrichment (R)”: 1.19.
Under “6-mer enrichment (R)”, `CCCCAG` is recorded as 1.11.
`AUCCGG` — result for “6-mer enrichment (R)”: 0.856.
Under “6-mer enrichment (R)”, `CAAACA` is recorded as 0.814.
For `CACAGC`, “6-mer enrichment (R)” read 0.857.
For `AUCUCU`, “6-mer enrichment (R)” read 0.865.
For `CCUUUU`, “6-mer enrichment (R)” read 1.23.
`CGUGAU`: “6-mer enrichment (R)” 0.915.
Under “6-mer enrichment (R)”, `CACAUG` is recorded as 0.891.

Some of these lines once more (study 3):
With `UCCUCAAGUCCUGUGCUACACAUCGUAUGUACCGAAUCGGUGGGUGGGUGGAAAGUAUUAUGUUACGCCGUUCGGAUCUGCACUUCCAGC` the log2 enrichment was 0.805.
The log2 enrichment of `AAGUCCUGUGCUACACAUCGUAUGUACCGAAUCGGGUUUUUGGUUUUUGGUUUUUGGAAAGUAUUAUGUUACGCCGUUCGGAUCUGCACU` is reported as -0.543.
With `CUGUGCUACACAUCGUAUGUACCGAAUCGGGUUUUUUUGGGUUUUUUUGGGGUUUUUUUGGAAAGUAUUAUGUUACGCCGUUCGGAUCUG` the log2 enrichment was 1.42.
For `UGGCCGGUGGCCGUGAGAACACGCUGUGUGGCUGAAAAGUGAAGGCAAGAGCUGAUUUGGCCUCUGUGCUCCCCUCCGCAAGGGGAUCGU`, the log2 enrichment was -0.313.
`AAGUCCUGUGCUACACAUCGUAUGUACCGAAUCGGGGUUUUGGGUUUUGGUUUUGGGAAAGUAUUAUGUUACGCCGUUCGGAUCUGCACU` gave a log2 enrichment of -0.735.
With `UCCUCAAGUCCUGUGCUACACAUCGUAUGUACCGAAUCGGGAGGAGGGAGGGAAAGUAUUAUGUUACGCCGUUCGGAUCUGCACUUCCAG` the log2 enrichment was -0.312.
